{"data": "Published values pooled from the literature", "note": "Protocols differ between the studies behind these lines. ± marks the error that the study gave.", "sequence of UniProt P07949 (whole entry, unmodified, looked up)": "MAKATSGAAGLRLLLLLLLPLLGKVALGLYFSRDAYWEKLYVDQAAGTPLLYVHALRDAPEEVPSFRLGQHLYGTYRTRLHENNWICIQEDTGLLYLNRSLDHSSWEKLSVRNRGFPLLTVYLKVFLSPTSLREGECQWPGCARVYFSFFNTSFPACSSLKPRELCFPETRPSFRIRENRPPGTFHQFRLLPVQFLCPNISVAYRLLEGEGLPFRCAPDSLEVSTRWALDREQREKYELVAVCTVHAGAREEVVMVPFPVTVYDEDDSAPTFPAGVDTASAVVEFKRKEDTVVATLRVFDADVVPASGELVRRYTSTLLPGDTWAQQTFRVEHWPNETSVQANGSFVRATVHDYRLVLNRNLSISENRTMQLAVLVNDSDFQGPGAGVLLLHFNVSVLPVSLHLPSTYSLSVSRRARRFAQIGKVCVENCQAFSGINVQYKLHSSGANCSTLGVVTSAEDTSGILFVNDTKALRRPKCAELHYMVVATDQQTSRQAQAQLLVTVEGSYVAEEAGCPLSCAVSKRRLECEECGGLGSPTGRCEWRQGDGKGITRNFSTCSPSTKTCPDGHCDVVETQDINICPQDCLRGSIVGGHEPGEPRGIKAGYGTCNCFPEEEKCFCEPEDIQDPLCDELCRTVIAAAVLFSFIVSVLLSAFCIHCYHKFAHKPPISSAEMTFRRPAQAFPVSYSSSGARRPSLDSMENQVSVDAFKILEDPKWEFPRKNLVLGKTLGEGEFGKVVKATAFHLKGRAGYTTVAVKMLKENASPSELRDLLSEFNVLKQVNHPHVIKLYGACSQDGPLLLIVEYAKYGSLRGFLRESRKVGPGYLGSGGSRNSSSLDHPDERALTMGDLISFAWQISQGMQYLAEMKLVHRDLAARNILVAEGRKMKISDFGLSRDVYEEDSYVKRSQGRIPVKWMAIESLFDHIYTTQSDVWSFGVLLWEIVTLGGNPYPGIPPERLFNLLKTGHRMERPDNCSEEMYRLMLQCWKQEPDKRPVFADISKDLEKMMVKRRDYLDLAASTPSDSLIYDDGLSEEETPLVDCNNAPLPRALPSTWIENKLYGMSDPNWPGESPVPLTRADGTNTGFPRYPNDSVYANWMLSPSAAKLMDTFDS", "sequence of UniProt P08246 (whole entry, looked up)": "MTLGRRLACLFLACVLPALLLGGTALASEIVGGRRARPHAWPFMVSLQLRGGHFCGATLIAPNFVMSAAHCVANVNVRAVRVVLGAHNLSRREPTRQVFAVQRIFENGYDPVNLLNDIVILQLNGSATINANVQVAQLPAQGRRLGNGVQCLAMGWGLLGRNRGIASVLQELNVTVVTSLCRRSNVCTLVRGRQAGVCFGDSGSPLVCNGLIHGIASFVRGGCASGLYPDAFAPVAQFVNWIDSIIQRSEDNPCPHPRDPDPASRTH", "sequence of UniProt Q16832 (whole entry, looked up)": "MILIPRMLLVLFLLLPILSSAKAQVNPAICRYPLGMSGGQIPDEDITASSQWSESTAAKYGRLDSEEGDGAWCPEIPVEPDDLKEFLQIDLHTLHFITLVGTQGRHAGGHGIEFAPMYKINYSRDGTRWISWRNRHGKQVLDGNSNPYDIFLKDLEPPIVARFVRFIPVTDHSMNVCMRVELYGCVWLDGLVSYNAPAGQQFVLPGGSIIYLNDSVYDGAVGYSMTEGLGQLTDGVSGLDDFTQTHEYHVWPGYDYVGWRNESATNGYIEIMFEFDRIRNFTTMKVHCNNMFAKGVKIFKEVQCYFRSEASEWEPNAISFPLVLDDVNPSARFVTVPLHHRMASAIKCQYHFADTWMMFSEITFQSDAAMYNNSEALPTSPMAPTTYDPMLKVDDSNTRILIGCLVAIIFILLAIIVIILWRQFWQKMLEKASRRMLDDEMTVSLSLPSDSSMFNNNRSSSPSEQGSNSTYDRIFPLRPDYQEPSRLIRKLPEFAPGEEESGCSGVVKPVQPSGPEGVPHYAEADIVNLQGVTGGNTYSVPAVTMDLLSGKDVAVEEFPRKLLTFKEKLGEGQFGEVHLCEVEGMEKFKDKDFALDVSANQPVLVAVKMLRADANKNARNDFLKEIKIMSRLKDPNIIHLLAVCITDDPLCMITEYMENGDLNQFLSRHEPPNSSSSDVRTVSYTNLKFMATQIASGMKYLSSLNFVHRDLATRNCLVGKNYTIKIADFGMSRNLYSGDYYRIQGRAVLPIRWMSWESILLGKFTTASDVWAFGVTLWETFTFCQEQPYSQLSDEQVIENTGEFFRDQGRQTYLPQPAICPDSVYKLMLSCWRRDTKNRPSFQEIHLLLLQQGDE", "sequence of UniProt O15151 (whole entry, looked up)": "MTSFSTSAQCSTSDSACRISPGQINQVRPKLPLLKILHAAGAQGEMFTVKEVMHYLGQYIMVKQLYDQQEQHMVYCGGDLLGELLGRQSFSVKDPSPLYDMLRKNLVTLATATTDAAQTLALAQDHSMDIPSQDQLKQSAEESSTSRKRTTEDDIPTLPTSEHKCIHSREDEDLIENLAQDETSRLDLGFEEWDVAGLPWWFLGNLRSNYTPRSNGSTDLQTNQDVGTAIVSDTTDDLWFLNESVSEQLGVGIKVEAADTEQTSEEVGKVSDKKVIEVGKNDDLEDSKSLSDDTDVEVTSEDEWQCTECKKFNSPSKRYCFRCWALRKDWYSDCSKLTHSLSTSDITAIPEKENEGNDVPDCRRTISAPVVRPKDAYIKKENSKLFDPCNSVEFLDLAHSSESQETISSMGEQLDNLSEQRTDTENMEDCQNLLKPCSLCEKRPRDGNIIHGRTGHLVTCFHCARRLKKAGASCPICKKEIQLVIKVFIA", "sequence of UniProt Q96EB6 (whole entry, looked up)": "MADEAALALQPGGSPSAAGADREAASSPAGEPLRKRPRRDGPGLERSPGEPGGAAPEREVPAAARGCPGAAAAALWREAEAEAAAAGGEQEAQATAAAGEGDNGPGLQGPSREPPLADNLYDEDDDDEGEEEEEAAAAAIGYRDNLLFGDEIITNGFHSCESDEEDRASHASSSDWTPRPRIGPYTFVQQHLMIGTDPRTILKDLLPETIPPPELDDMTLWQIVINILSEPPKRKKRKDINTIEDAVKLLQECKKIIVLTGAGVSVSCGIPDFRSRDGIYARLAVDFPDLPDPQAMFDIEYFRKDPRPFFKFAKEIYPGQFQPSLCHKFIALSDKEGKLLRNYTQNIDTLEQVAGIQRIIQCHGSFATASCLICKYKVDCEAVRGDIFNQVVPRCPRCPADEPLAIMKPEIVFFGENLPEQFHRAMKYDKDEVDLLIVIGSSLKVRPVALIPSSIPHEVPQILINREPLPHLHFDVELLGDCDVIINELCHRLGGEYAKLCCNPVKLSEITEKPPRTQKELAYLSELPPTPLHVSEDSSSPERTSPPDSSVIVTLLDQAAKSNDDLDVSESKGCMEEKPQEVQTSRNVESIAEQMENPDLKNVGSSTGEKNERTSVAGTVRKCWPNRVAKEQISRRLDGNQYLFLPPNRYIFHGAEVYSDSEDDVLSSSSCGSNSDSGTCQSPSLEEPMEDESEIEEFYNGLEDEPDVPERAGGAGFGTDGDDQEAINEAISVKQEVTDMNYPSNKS", "sequence of UniProt P41143 (whole entry, unmodified, looked up)": "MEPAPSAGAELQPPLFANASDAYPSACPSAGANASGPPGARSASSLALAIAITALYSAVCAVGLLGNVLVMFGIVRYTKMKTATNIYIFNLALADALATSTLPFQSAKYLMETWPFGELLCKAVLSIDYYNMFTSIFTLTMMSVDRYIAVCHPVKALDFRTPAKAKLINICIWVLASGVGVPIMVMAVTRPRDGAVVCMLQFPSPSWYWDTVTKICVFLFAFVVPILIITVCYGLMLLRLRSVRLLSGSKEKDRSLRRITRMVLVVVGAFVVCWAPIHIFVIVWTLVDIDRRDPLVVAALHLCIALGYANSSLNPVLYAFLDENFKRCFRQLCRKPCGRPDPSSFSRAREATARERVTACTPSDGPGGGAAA", "sequence of UniProt P48736 (whole entry, looked up)": "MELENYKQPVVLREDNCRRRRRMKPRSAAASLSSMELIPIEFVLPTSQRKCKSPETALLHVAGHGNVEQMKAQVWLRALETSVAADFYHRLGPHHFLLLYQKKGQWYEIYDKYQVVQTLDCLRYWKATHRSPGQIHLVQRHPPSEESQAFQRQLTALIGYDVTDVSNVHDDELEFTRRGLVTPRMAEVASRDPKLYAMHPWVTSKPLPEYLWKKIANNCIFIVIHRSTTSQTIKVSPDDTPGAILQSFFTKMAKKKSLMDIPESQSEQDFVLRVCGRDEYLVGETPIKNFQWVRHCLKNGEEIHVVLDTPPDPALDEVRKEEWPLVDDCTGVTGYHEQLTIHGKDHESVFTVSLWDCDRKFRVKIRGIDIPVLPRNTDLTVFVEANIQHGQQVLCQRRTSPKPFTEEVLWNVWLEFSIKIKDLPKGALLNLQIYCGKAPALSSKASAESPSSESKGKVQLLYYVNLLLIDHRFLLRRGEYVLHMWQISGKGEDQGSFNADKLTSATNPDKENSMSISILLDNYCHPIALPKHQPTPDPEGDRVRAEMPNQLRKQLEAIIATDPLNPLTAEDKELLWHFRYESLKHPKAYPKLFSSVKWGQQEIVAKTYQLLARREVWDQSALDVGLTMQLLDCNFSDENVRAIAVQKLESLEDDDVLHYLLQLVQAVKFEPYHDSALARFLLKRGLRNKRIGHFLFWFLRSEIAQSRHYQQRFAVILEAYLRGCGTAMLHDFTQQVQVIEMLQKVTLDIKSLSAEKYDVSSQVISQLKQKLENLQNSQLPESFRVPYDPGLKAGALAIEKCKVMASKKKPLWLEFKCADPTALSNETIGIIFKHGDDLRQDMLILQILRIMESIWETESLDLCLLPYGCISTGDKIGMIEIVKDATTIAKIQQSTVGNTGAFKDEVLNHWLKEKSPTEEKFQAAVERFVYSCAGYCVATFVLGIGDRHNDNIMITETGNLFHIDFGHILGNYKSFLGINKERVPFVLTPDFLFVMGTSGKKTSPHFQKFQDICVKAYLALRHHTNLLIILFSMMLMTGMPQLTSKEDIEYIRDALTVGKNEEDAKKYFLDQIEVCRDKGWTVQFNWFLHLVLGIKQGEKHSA"}
{"Structure (SMILES)": "CNC(=S)NCCCC[C@H](NC(=O)CCc1ccccc1)C(=O)N[C@@H](CCCNC(=N)N)C(=O)N[C@@H](CC1CCCCC1)C(=O)N[C@H](CCCCN)C(=O)N[C@@H](CC1CCCCC1)C(=O)N[C@H](CCCNC(=N)N)C(=O)N[C@@H](CC1CCCCC1)C(N)=O", "target or system": "SIRT1 (Homo sapiens, UniProt Q96EB6)", "test": "enzyme activity, inhibitor, fluorescence", "quantity": "IC50", "value": "0.22 µM"}
{"Structure (SMILES)": "Nc1cccc(NC(P(=O)(O)O)P(=O)(O)O)c1", "target or system": "ppk (Escherichia coli, UniProt P0A7B1)", "test": "enzyme activity, inhibitor", "quantity": "IC50", "value": "103 ± 0.36 µM"}
{"Structure (SMILES)": "O=P(Oc1ccccc1)(Oc1ccccc1)C(NCc1ncc(-c2ccccc2)[nH]1)c1ccc(O)cc1 (stereo not drawn)", "target or system": "ABHD11 (Homo sapiens, UniProt Q8NFV4)", "test": "enzyme activity, inhibitor", "setting": "lysate", "quantity": "IC50", "value": "15.1 µM"}
{"Structure (SMILES)": "CC(=O)N[C@@H](CC(C)C)C(=O)N[C@H](C(=O)N[C@@H](Cc1ccccc1)C(=O)N[C@@H]1CSCCCCCCCCSC[C@@H](C(=O)N[C@@H](CO)C(N)=O)NC(=O)[C@H](CC(C)C)NC(=O)[C@H](CCC(N)=O)NC(=O)[C@H](C)NC(=O)[C@H](Cc2c[nH]c3ccccc23)NC(=O)[C@H](Cc2ccc(O)cc2)NC(=O)[C@H](CCC(=O)O)NC1=O)[C@@H](C)O", "target or system": "MDM2 (Homo sapiens, UniProt Q00987)", "test": "ligand displacement, FP", "quantity": "IC50", "value": "0.037 µM"}
{"Structure (SMILES)": "CC(C)(C)C(=O)OCOP(=O)(OCOC(=O)C(C)(C)C)C1CCCN(O)C1=O (stereo not drawn)", "target or system": "SW-620", "quantity": "CC50", "value": "> 100 µM"}
{"Structure (SMILES)": "CC[C@H](C)[C@@H]1NC(=O)[C@H](Cc2ccccc2)NC(=O)C[C@H](CC(=O)O)NC(=O)[C@@H](NC(=O)[C@@H](NC(=O)[C@H](CO)NC(=O)[C@@H](N)Cc2ccc(O)cc2)[C@@H](C)O)CSC(=O)[C@H](CCSC)NC1=O", "target or system": "Accessory gene regulator protein A (Staphylococcus aureus, UniProt O33587)", "test": "inhibitor", "quantity": "IC50", "value": "> 2 µM"}
{"Structure (SMILES)": "Cc1ccc2c(n1)c(-c1cccc(S(C)(=O)=O)c1)c(C)n2C/C(F)=C/CN", "target or system": "Cytochrome P450 3A4 (CYP3A4, Homo sapiens, UniProt P08684)", "test": "enzyme activity, inhibitor", "system": "human, liver microsomes", "quantity": "IC50", "value": "> 25 µM"}
{"Structure (SMILES)": "CC(C)C[C@H]1CNC(=O)N2C[C@H](C[C@H]2C(N)=O)SCC(=O)NCCNC(=O)CSC[C@H](NC(=O)[C@H](Cc2ccccc2)NC(=O)[C@H](CO)NC(=O)[C@@H](N)[C@@H](C)O)C(=O)N[C@@H](CCC(=O)O)C(=O)N[C@@H](Cc2ccc(O)cc2)C(=O)N[C@@H](Cc2c[nH]c3ccccc23)C(=O)N[C@@H](C)C(=O)N[C@@H](CC(C)C)CNC(=O)N1", "target or system": "Protein Mdm4, with p53 (MDM4, Homo sapiens, UniProt O15151)", "test": "p53 binding, TR-FRET", "quantity": "IC50", "value": "0.119 µM"}
{"Structure (SMILES)": "CC[C@H](C)[C@H](NC(=O)[C@@H](NC(=O)[C@H](Cc1c[nH]c2ccccc12)NC(=O)[C@H](CO)NC(=O)[C@H](Cc1c[nH]c2ccccc12)NC(=O)[C@H](CO)NC(=O)[C@H](CCC(=O)O)NC(C)=O)[C@@H](C)CC)C(N)=O", "target or system": "Programmed cell death 1 ligand 1, with PD-1 (CD274, Homo sapiens, UniProt Q9NZQ7)", "test": "PD-1/PD-L1 binding, ELISA", "setting": "together with: biotinylated human PD-1", "quantity": "IC50", "value": "> 10 µM"}
{"Structure (SMILES)": "CN(C)S(=O)(=O)c1ccc2nnn(OCc3ccc(C(C)(C)C)cc3)c2c1", "target or system": "Genome polyprotein, 3C protease (rhinovirus B14, UniProt P03303)", "test": "protease activity, inhibitor, SAMDI-MS", "quantity": "IC50", "value": "> 100 µM"}
{"Structure (SMILES)": "CC(C)[C@H]1NC(=O)C[C@H]2/C=C/CCSSC[C@@H](NC1=O)C(=O)N[C@H](Cc1cccc3ccccc13)C(=O)NCC(=O)O2", "target or system": "RET (Homo sapiens, UniProt P07949, Y791F)", "test": "enzyme activity, inhibitor", "setting": "10 µM", "quantity": "inhibition", "value": "7.5%"}
{"Structure (SMILES)": "CS(C)(=O)=Nc1ccc(-c2ccc(-c3nc4cc(O[C@@H]5CO[C@H]6[C@@H]5OC[C@H]6O)[nH]c4cc3F)cc2)cc1", "target or system": "RET (Homo sapiens, UniProt P07949, V804L)", "test": "enzyme activity, inhibitor", "setting": "10 µM", "quantity": "inhibition", "value": "-22%"}
{"Structure (SMILES)": "CN(C)[C@H]1C[C@@]23CC[C@@]4(O2)C(=CC[C@]2(C)[C@@H](c5ccc6ccncc6c5)CC[C@H]24)C=C3[C@@H](O)[C@@H]1O", "target or system": "PIK3CG (Homo sapiens, UniProt P48736)", "test": "ATP probe labelling, inhibitor, KiNativ profiling", "setting": "1 µM", "quantity": "inhibition", "value": "-2.5%"}
{"Structure (SMILES)": "O=C(CN1C(=O)C2(CCN(C(=O)c3cnc4[nH]ncc4c3)CC2)c2c(Cl)cccc21)NCC(F)(F)F", "target or system": "DDR2 (Homo sapiens, UniProt Q16832)", "test": "ligand displacement", "quantity": "IC50", "value": "7.62 µM"}
{"Structure (SMILES)": "O=S(=O)(F)/C=C(/c1ccccc1)n1ccnn1", "target or system": "Neutrophil elastase (ELANE, Homo sapiens, UniProt P08246)", "test": "enzyme activity, inhibitor", "setting": "10 min preincubation, pH 7.4, 25 °C, 0.05% Nonidet P-40, together with: AAPV-AMC substrate", "quantity": "IC50", "value": "5.3 ± 0.83 µM"}
{"Structure (SMILES)": "CCC(C(=O)Nc1ccccc1C)n1c(SCc2ccc(F)cc2)nc2ncccc21 (stereo not drawn)", "target or system": "USP28 (Homo sapiens, UniProt Q96RU2)", "test": "enzyme activity, inhibitor", "quantity": "IC50", "value": "> 100 µM"}
{"Structure (SMILES)": "O=C1NC2(CC2)COc2ncc(F)cc2[C@H]2COCCN2c2ccn3ncc1c3n2", "system": "Sprague-Dawley rat, female, spleen", "setting": "oral, 2.5 mg/kg/day, 4 weeks, end of treatment", "quantity": "organ-to-brain weight ratio", "value": "53.1 ± 14.4%"}
{"Structure (SMILES)": "CCN(CC)C(=O)c1ccc(C(c2cccc(O)c2)N2CC(C)N(Cc3ccccc3)CC2C)cc1 (stereo not drawn)", "target or system": "OPRD1 (Homo sapiens, UniProt P41143, W284A)", "test": "agonist", "quantity": "EC50", "value": "0.073 nM"}
{"note": "For quick reference, copied from above:"}
{"Structure (SMILES)": "CC(C)(C)C(=O)OCOP(=O)(OCOC(=O)C(C)(C)C)C1CCCN(O)C1=O (stereo not drawn)", "target or system": "SW-620", "quantity": "CC50", "value": "> 100 µM"}
{"Structure (SMILES)": "CS(C)(=O)=Nc1ccc(-c2ccc(-c3nc4cc(O[C@@H]5CO[C@H]6[C@@H]5OC[C@H]6O)[nH]c4cc3F)cc2)cc1", "target or system": "RET (Homo sapiens, UniProt P07949, V804L)", "test": "enzyme activity, inhibitor", "setting": "10 µM", "quantity": "inhibition", "value": "-22%"}
{"Structure (SMILES)": "CNC(=S)NCCCC[C@H](NC(=O)CCc1ccccc1)C(=O)N[C@@H](CCCNC(=N)N)C(=O)N[C@@H](CC1CCCCC1)C(=O)N[C@H](CCCCN)C(=O)N[C@@H](CC1CCCCC1)C(=O)N[C@H](CCCNC(=N)N)C(=O)N[C@@H](CC1CCCCC1)C(N)=O", "target or system": "SIRT1 (Homo sapiens, UniProt Q96EB6)", "test": "enzyme activity, inhibitor, fluorescence", "quantity": "IC50", "value": "0.22 µM"}
